Assay results pooled from the literature.
Numbered parts are unrelated; each lists some results of a single study. ± marks the error that the study gave.

Series 1
Target: Fibroin-modulator-binding protein-1 99-193 (Bombyx mori, UniProt Q5FBS0)
Method: ITC
Molecule type: double-stranded DNA, one strand shown
All molecules: dsDNA
Construct (chain): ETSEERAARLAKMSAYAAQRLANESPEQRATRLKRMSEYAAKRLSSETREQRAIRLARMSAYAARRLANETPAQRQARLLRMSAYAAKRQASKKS
| Strand | Kd [µM] |
| --- | --- |
| GACGGACGGACG | 2.62 ± 0.259 |
| TCAATCAATCAA | 1.42 ± 0.109 |
| AGGAAGGAAGGA | 4.96 ± 0.992 |
| GAAAGAAAGAAA | 2.94 ± 0.334 |
| AGCTAGCTAGCT | 3.38 ± 0.426 |
| CCCACCCACCCA | 4.14 ± 0.407 |
| AAGAAAGAAAGA | 3.61 ± 0.794 |
| AGACAGACAGAC | 8.38 ± 0.969 |

Further values, each from its own experiment
HLA class I histocompatibility antigen, A alpha chain allele A*01:01: HLA class I histocompatibility antigen, A alpha chain, allele A*01:01 (Homo sapiens, UniProt P04439)
HLA class I histocompatibility antigen, A alpha chain allele A*24:02: HLA class I histocompatibility antigen, A alpha chain, allele A*24:02 (Homo sapiens, UniProt P04439)
| Molecule | target or system | assay | test system | setting | scale | measurement | result |
| --- | --- | --- | --- | --- | --- | --- | --- |
| ITQLMPFGS | HLA class I histocompatibility antigen, A alpha chain allele A*01:01 | conformational ELISA | peptide | concentration not given | relative to: positive control peptide, direction not given | binding score | 0.3% |
| SEC11A |  | co-immunoprecipitation | human RBC cytosol | unit not given, added: Band 3 peptide 1-56 bait | relative to: negative control | co-IP enrichment | 0.65 |
| NPDALPETLV | human MAGI1-2/6 PDZ construct (MBP fusion) | automated holdup | peptide, crude extract | concentration not given, uncorrected, unit not given | relative to: biotin control resin, higher = stronger binding | binding intensity | 0.293 |
| MQLMPFGCL | HLA class I histocompatibility antigen, A alpha chain allele A*24:02 | conformational ELISA | peptide | concentration not given | relative to: positive control peptide, direction not given | binding score | 8.6% |
| EKPIDSETKM | human MAGI1-2/6 PDZ construct (MBP fusion) | automated holdup | peptide, purified PDZ protein | concentration not given, unit not given | relative to: biotin control resin, higher = stronger binding | binding intensity | -0.0466 |
| MQLMPFGCLL | HLA class I histocompatibility antigen, A alpha chain allele A*01:01 | conformational ELISA | peptide | concentration not given | relative to: positive control peptide, direction not given | binding score | 0.3% |
| SEKHFRETEV | human MAGI1-2/6 PDZ construct (MBP fusion) | automated holdup | peptide, crude extract | concentration not given, uncorrected, unit not given | relative to: biotin control resin, higher = stronger binding | binding intensity | 0.649 |
| ERK2 |  | co-immunoprecipitation | human RBC membrane | DMTMM crosslinker, unit not given, added: Band 3 peptide 1-56 bait | relative to: negative control | co-IP enrichment | 0 |
| TQLMPFGSL | HLA class I histocompatibility antigen, A alpha chain allele A*24:02 | conformational ELISA | peptide | concentration not given | relative to: positive control peptide, direction not given | binding score | 2.4% |
| GSGAGKETSF | human MAGI1-2/6 PDZ construct (MBP fusion) | automated holdup | peptide, purified PDZ protein | concentration not given, unit not given | relative to: biotin control resin, higher = stronger binding | binding intensity | 0.0233 |

Repeated from above (further values, each from its own experiment):
| Molecule | target or system | assay | test system | setting | scale | measurement | result |
| --- | --- | --- | --- | --- | --- | --- | --- |
| ERK2 |  | co-immunoprecipitation | human RBC membrane | DMTMM crosslinker, unit not given, added: Band 3 peptide 1-56 bait | relative to: negative control | co-IP enrichment | 0 |
